Results pooled from the literature.
Parts stem from different laboratories: compare values within a part only. Substitutions count along the parent as printed.

Sample 1 — technique: DHFR PCA, deep sequencing; sample: yeast; together with: (+)-ABA 0.032 µM; reference: wild-type fitted maximum; direction: higher = stronger binding
Target: ABI1, truncated, D143A, DHFR fusion (Arabidopsis thaliana)
Notes: methotrexate growth selection, single substitutions
Starting sequence: PYL1, truncated, DHFR fusion (Arabidopsis thaliana); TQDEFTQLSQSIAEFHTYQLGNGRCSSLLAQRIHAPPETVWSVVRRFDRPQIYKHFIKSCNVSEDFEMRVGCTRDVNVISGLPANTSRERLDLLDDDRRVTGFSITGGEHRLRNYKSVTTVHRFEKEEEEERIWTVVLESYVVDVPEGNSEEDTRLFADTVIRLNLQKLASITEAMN
Change | relative binding score [%]
I57T | 3.06
K54W | 0.801
C72D | 20.9
N77C | 58.6
L91H | 7.03
R24N | 3.59
R111C | 11.6
E64T | 18.5

Sample 2 — technique: RNAcompete; form: RNA; sample: in vitro; tested at: 20 nM; notes: 7-mer, probes averaged, single round; reference: mean of 7-mers; direction: higher = stronger binding
Target: PABPC1L2, full length, GST fusion (mouse, UniProt A0ABA7IW68)
Construct (chain): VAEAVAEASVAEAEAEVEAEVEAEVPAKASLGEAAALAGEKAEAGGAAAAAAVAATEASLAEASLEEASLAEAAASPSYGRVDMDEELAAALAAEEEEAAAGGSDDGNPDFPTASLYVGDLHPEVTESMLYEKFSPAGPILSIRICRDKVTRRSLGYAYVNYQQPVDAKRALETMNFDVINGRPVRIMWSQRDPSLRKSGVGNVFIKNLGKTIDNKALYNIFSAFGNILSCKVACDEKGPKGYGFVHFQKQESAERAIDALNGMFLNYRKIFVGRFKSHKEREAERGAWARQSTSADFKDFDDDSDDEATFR
Sequence | 7-mer Z-score
UCCUACC | -0.325
UUUACCA | -0.224
AAAGUCG | 0.952
CAUAGGC | -0.0192
GUACAUG | -0.106
UAGAUGU | -0.0464
AUUCGCG | -0.249
CCGGACA | -0.0718

Sample 3 — technique: protein-binding microarray; form: double-stranded DNA, one strand shown; sample: in vitro; tested at: 250 nM; notes: 60-bp whole probe; together with: salmon DNA 0.4 mg/ml; reference: random background probes; direction: higher = stronger binding; shared flanks, not repeated: GCCTAGCAC … GTCTTGATTCGCTTGACGCTGCTG
Target: Interferon regulatory factor 7, full length, phosphomimetic (IRF7, Homo sapiens, UniProt Q92985, residues 1-503, S101K/S471D/S472D/S475D/S476D/S477D/S483D/S484D/S487D)
UniProt Q92985, sequence (whole entry, unmodified, looked up): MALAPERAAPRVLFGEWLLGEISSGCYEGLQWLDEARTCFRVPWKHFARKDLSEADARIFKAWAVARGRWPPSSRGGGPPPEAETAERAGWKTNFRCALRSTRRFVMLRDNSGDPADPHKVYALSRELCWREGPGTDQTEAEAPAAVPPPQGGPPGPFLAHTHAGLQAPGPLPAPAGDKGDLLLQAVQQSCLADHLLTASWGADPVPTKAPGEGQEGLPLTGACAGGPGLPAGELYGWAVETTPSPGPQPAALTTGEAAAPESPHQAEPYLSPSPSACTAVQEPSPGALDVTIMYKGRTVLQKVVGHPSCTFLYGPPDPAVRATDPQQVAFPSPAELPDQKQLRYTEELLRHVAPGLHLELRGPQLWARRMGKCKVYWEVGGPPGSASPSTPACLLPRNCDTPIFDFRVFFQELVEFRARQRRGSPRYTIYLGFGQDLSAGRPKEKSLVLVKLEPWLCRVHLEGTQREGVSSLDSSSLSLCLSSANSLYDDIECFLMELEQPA
Sequence | log fluorescence
GATGGTTTCGGGTTTCGGGACGTGCTA | 11.9 z-score
TTAGATATCGGTTTCGGTTAGTGCTAG | 9.31 z-score
TGTTTTTTGGTTTCTGGTTTGTGCTAG | 5.61 z-score
CCTATCTTATGATATATATAAGTGCTA | 0.723 z-score
TCATCTTTATGTACTCTCACTGTGCTA | 0.703 z-score
GCTTCCTCACCTGATGCCTCGTGCTAG | 2.43 z-score
TTATGTTTCGGGTATCGGTTAGTGCTA | 3.88 z-score
CAGCACAGCTGACTACAAGCGTGCTAG | -1.25 z-score

Single results of other studies
Starting sequence: PafA, mature enzyme, eGFP fusion (Elizabethkingia meningoseptica, UniProt Q9KJX5); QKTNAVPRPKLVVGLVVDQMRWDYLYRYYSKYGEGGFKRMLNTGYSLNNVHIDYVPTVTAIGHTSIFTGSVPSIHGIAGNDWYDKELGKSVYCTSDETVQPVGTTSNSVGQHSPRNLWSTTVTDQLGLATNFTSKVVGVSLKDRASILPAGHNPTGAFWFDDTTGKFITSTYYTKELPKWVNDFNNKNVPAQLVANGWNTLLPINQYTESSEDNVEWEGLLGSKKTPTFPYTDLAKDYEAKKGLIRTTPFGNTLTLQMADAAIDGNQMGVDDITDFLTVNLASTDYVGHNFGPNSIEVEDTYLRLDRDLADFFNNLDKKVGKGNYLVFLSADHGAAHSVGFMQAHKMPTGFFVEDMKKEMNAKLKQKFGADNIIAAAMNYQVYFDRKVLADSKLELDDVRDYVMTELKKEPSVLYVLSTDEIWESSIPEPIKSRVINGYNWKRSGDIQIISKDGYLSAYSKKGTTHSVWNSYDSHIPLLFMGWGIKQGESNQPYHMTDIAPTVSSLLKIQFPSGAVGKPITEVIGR
Change | target | assay | system | setting | how to read | measurement | result
V468G | inorganic phosphate, free oxyanion | microfluidic competitive inhibition | in vitro, cell-free expressed | not given, derived from inhibition constants, unchanged parent 615000 nM | lower = stronger binding | phosphate dissociation constant | 364 µM

Some of these lines once more (sample 2):
Sequence | 7-mer Z-score
AAAGUCG | 0.952
AUUCGCG | -0.249
